Assay results gathered from unrelated publications.
Each line is one published result; not all experiments were run side by side. Numbers after ± are the reported error.

| Structure (SMILES) | tested on | assay | test system | conditions | scale | endpoint | value |
| --- | --- | --- | --- | --- | --- | --- | --- |
| CCN(CC)CCCC[C@H](NC(=O)[C@H](CC(C)C)NC(=O)[C@H](C)NC(=O)[C@H](Cc1ccccc1)NC(=O)c1ccc(C(C)(C)C)cc1)C(=O)N[C@@H](CO)C(=O)OC | Peregrin, isoform A (BRPF1, Homo sapiens, UniProt P55201) | thermal stabilisation, thermal shift | – | 25 µM | reference: protein without compound, higher = stronger binding | delta Tm | -0.04 °C |
| C[C@@H]1NC(=O)N[C@@H]1CCCCCC(=O)N1CCN(C(=O)c2ccc(/C=C/c3n[nH]c4cc(-c5ccc(S(=O)(=O)F)cc5)ccc34)cc2)CC1 | Tyrosine-protein kinase ABL1 (ABL1, Homo sapiens, UniProt P00519) | covalent inhibitor | recombinant protein | – | – | kinact/KI | 90 M⁻¹ s⁻¹ |
| O=C(O)C(F)(F)C(F)(F)C(F)(F)C(F)(F)C(F)(F)C(F)(F)C(F)(F)F | Solute carrier family 22 member 12 (SLC22A12, Homo sapiens, UniProt Q96S37) | substrate | HEK293 stably expressing | 10 µM | – | linear uptake duration | 2.5 min |
| NCCc1c[nH]c2ccc(O)cc12 | AANAT1 cattle | substrate, DTNB colorimetric | – | together with: acetyl-CoA | – | Km | 120 ± 100 µM |
| CN(C(=O)n1cnc(-c2ccc[n+]([O-])c2)c1)C1CCCCC1 | Abhydrolase domain-containing protein 11 (Rattus norvegicus, UniProt D3ZXK4) | probe labelling, inhibitor, competitive ABPP with azido-FP probe, measured: Abhd11 | rat brain membrane fraction | 100 µM | – | inhibition | 26.7% |
| O=C1[O][Pt]2([NH][C@@H]3CCCC[C@H]3[NH]2)[O]C1=O | Neuronal acetylcholine receptor subunit alpha-7 (Chrna7, Rattus norvegicus, UniProt Q05941) | potentiator | – | concentration not given, holding potential -80 mV, together with: acetylcholine 30 µM | – | potentiation | inactive |
| O=C(Nc1cnccc1Cl)N1CCN(Cc2ccc3c(c2)OC(F)(F)O3)CC1 | Fibroblast growth factor receptor 1 (FGFR1, Homo sapiens, UniProt P11362) | kinase activity, inhibitor | – | 10 µM, human, together with: poly(Glu:Tyr) substrate | – | inhibition | 3% |
| CC(C)C[C@@H](C=O)NC(=O)[C@H](CC(C)C)NC(=O)[C@H](CC(C)C)NC(=O)OCc1ccccc1 | Gag-Pol polyprotein, integrase (gag-pol, Human immunodeficiency virus 1, UniProt P12497) | integrase multimerization, BiFC flow cytometry | – | 1 µM | reference: DMSO | AUC ratio | 1.25 |
| Cc1cc(C)n2c1C=C1C=CC(CCC(=O)Nc3ccc(OCC(=O)N[C@@H]4C(=O)N5[C@@H]4SC(C)(C)[C@@H]5C(=O)[O-])cc3)=[N+]1[B-]2(F)F.[Na+] | Penicillin-binding protein 1A (pbpA, Streptococcus pneumoniae, UniProt Q8DR59) | whole-cell time course | live Streptococcus pneumoniae cells | – | – | kinact/KI | 30200 ± 5800 M⁻¹ s⁻¹ |
| CC(=O)N[C@@H](CS)C(=O)N[C@@H](CCCNC(=N)N)C(=O)N[C@@H](CCCCN)C(=O)N[C@@H](CCCNC(=N)N)C(=O)N[C@@H](CC(N)=O)C(=O)N[C@@H](CCCNC(=N)N)C(=O)N[C@@H](CO)C(=O)N1CCC[C@H]1C(=O)N[C@@H](CCC(=O)O)C(=O)N[C@@H](CCCNC(=N)N)C(N)=O | WD repeat-containing protein 5 (WDR5, Homo sapiens, UniProt P61964) | binding, competitor of LANA peptide, ITC | – | pH 7.0, 20 °C, WIN motif peptide | – | ΔG | -6.8 kcal/mol |
| COc1ccc(N2C(=O)N(c3c(C)cccc3Cl)Cc3cnc(Nc4ccc(C5CCN(C)CC5)cc4OC)nc32)nc1 | Serine/threonine-protein kinase BRSK2 (BRSK2, Homo sapiens, UniProt Q8IWQ3) | kinase activity | – | 0.5 µM | – | inhibition | 10% |
| O=C(c1ccc(Cl)cc1)N1CCN2C(=O)N(OC(=O)N3CCOc4ccccc43)C(=O)C2C1 (stereo not drawn) | Cholinesterase (BCHE, Homo sapiens, UniProt P06276) | MS-based ABPP | SW-620 conditioned medium | 10 µM, 1 h, 37 °C | reference: treated over control | mean protein ratio | 1.21 |
| CC(=O)NC1CCN(c2ncnc3[nH]cc(-c4cccc(Cl)c4)c23)CC1 | Leucine-rich repeat serine/threonine-protein kinase 2 (LRRK2, Homo sapiens, UniProt Q5S007) | NanoBRET | cells | – | reference: PF-06447475, fold lower potency | potency ratio | > 13 fold |
| COCC(=O)O[C@]1(CCN(C)CCCc2nc3ccccc3[nH]2)CCc2cc(F)ccc2[C@@H]1C(C)C | Cholinesterase (BCHE, Homo sapiens, UniProt P06276) | – | – | concentration not given, Triton | – | efficacy | -91.2 ± 13% |
| CCN(C)C(=O)Oc1ccc(CCC(=O)N2CCC(Cc3ccccc3)CC2)cc1 | Cholinesterase (BCHE, Equus caballus, UniProt P81908) | Ellman | equine serum BuChE | – | reference: AChE IC50 over BuChE IC50 | selectivity ratio | 0.5 |
| Cc1nn(C)cc1-c1nc2c(N3CCN(Cc4ccc(Cl)cc4)CC3)c(Cl)cnc2[nH]1 | Ribosomal protein S6 kinase alpha-1, C-terminal kinase domain (RPS6KA1, Homo sapiens, UniProt Q15418) | KINOMEscan | – | 1 µM | reference: DMSO control | remaining binding | 92% |
| O=C(Nc1cccnn1)N1CCC(=Cc2cccc(Oc3ccc(C(F)(F)F)cn3)c2)CC1 | BAR/IMD domain-containing adapter protein 2 (Baiap2, Rattus norvegicus, UniProt Q6GMN2) | competitive ABPP with azido-FP probe, measured: BAIAP2 | rat brain membrane fraction | 0.1 µM, unit not given | reference: DMSO | probe labelling | -2 |
| CCN(CC)CCOCCOC(=O)C1(c2ccccc2)CCCC1 | Plasmodium falciparum | – | 7G8 | – | – | IC50 | 3980 nM |
| CN1CCN(c2cc(-c3ccncc3)c(-c3ccc4ccccc4c3)nn2)CC1 | Orexin receptor type 2 (HCRTR2, Homo sapiens, UniProt O43614) | antagonist, FLIPR | – | 10 µM | – | inhibition | 32.6% |
| NCc1cc(=O)[nH]o1 | GABA-A receptor; alpha-1/beta-2/gamma-2 (Rattus norvegicus, UniProt P18508+P62813+P63138) | chloride current, agonist, whole-cell patch clamp | HEK293 expressing GABAA | 30 s | reference: maximum | maximal response | 116% |
| COc1cc(N)c(Cl)cc1C(=O)NC1CN2CCC1CC2 (stereo not drawn) | Probable G-protein coupled receptor 27 (Homo sapiens, UniProt Q9NS67) | β-arrestin recruitment, TANGO luminescence, measured: GPR27 | – | concentration not given | reference: basal luminescence | log2 fold change | 0.565 |
| O=C(O)Cc1c[nH]cn1 | Sodium- and chloride-dependent taurine transporter (SLC6A6, Homo sapiens, UniProt P31641, Y138A) | binding, microscale thermophoresis | – | 35.1 nM, fitted curve | higher = more binding | fraction bound | 0.000203 |
| Oc1ccc(/C=C/c2cc(O)cc(O)c2)cc1 | O-methyltransferase (Sorghum bicolor, UniProt A0A1B6PFV1, W279A) | isothermal titration calorimetry | – | apo protein | – | ∆G | -6.12 kcal/mol |
| Cc1c(Cl)c(=O)oc2cc(OP(=O)(OCCCl)OCCCl)ccc12 | Cholinesterase (BCHE, Homo sapiens, UniProt P06276) | – | – | concentration not given, Triton | – | efficacy | -78.4 ± 11.8% |
| CC1(C)C(C=C(Cl)Cl)C1C(=O)OCc1cccc(Oc2ccccc2)c1 (stereo not drawn) | uncharacterized protein (Anopheles coluzzii, UniProt A0A6E8VQK1) | enzyme activity, inhibitor | Sf9 cell homogenate | 23.26 µM, 0.1667 h, together with: α-naphthyl acetate substrate | reference: no inhibitor | remaining activity | 97.8% |
| C[C@H]1CN(c2n[nH]c3nc(N[C@H]4CC[C@H](NS(=O)(=O)CCC(F)(F)F)CC4)ncc23)CCO1 | Malate dehydrogenase, mitochondrial (MDH2, Homo sapiens, UniProt P40926) | inhibitor, Kinobeads competition profiling | – | 0.16 µM | reference: vehicle | relative abundance | 1.06 |
| OC(c1cc(C(F)(F)F)nc2c(C(F)(F)F)cccc12)C1CCCCN1 (stereo not drawn) | Plasmodium falciparum | cell growth | D10 | – | – | IC50 | 69 nM |

A few entries again:
| Structure (SMILES) | tested on | assay | test system | conditions | scale | endpoint | value |
| --- | --- | --- | --- | --- | --- | --- | --- |
| CN(C(=O)n1cnc(-c2ccc[n+]([O-])c2)c1)C1CCCCC1 | Abhydrolase domain-containing protein 11 (Rattus norvegicus, UniProt D3ZXK4) | probe labelling, inhibitor, competitive ABPP with azido-FP probe, measured: Abhd11 | rat brain membrane fraction | 100 µM | – | inhibition | 26.7% |
| O=C(c1ccc(Cl)cc1)N1CCN2C(=O)N(OC(=O)N3CCOc4ccccc43)C(=O)C2C1 (stereo not drawn) | Cholinesterase (BCHE, Homo sapiens, UniProt P06276) | MS-based ABPP | SW-620 conditioned medium | 10 µM, 1 h, 37 °C | reference: treated over control | mean protein ratio | 1.21 |
